Measured values from different studies.
Every numbered part comes from another study and shows a few of its results, in no order.

Block 1
Target: RING finger protein unkempt homolog, zinc fingers 1-6, GST-SBP tag (UNK, Homo sapiens, UniProt Q9C0B0, residues 30-357)
Sequence of UniProt Q9C0B0 (30-357, looked up): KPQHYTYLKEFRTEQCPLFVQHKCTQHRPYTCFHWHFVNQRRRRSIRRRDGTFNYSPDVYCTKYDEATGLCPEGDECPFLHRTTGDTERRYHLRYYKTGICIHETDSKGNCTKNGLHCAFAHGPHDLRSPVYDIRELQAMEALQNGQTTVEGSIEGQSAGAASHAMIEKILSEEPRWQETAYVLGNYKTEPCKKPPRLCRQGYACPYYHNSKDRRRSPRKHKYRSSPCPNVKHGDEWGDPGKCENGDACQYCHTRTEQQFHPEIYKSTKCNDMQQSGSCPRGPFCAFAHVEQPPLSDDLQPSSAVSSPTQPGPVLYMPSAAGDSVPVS
Method: RNA Bind-n-Seq
Molecule type: RNA
Medium: in vitro
Concentration: not given
Setting: RNA with constant flanks, human-mouse chimeric sites, ends assumed
Baseline: input RNA pool
Direction: higher = stronger binding
Quantity: bound/input enrichment
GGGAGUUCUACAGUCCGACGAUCGCCACCAGAUCCCAGAAACAUGACCCUUGCUGCCUACAAGGAGAAGAUGAAGGAGCUCCCACUAGUGUCCUUGUUCUGCUCCUGCUUCCUGGCCGAUCCCCUGAAUAAGUCGUCCUACAACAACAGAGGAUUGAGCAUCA: 0.457 ratio
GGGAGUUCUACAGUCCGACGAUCUCUUUAAAAAAAAAAUUACAGGAAAAUACAGUGCUUUCCCUCCCAUAGAUCCACGUUCAAGCUCAAAGAGCAAAGGCUUUGCACGGAGCUCAAACAUCUGAUGAAGAAAGAUUUCUGAGACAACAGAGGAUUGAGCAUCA: 0.978 ratio
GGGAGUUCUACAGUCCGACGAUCUUGAAAAACACAGAUAUCAAAGUUGUUGACUUUGGAAGUGCAACGUAUGAUGAUGAACAUCACAGUACUUUGGUGUCCACAAGGCACUACAGAGCUCCCGAGGUCAUUUUGGCUUUAGGUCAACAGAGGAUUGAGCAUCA: 0.35 ratio
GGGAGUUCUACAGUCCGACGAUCUUUCUACUGCAGCAAACGAUGCUAAGAAUUAAGGAUCCUAAGAAGUCCCUGGAUUUUUAUACGAGGGUUCUUGGACUGACCCUCCUGCAAAAAUGUGACUUCCCUGCUAUGAAGUUCUCGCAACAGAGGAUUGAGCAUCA: 0.328 ratio
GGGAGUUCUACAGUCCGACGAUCACUCAGAGAUCCACCUCCCAAAGUGCUCUGGAGCUCUGUGUGGCCACCACACCUAACUUGAUGGAUAUUUUAUAAAGUUAAUAUGAAUCUUCCUGUUCGUCCAGGGAAGAAAGAUUUGUUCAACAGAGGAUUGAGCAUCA: 0.602 ratio
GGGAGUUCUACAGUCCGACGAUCUGUAACUCUUAUCUGUAAGGUUCCCCCCCCUACUGUCCAAAAAAUAUGCAUGUAUAGUAAUUAGGACUUCAUUCCUCCAUGUUUUCUUCCCUUAUCUUACUGUCAUUGUCCUUAAACCUUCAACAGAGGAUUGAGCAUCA: 1.12 ratio
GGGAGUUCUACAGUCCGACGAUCCUGAGGAUACCACUGAAGAGACCUUAAAAGAAUCAUUUGAGGGCUCUGUUCGUGCAAGAAUAGUCACUGAUCGGGAAACUGGUUCUUCCAAAGGGUUUUGGUUUUGUGACUUUAAUAGUGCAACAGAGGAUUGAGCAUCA: 0.317 ratio
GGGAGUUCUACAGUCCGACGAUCACCUCCCCCUCCCGCCUCACCCCACCCAAGAAAGAAAGAAAGUUUUUGGCUUUUUUUUUCCUUCCCCAUACAAAGUGAUUACAGUUUCCCCCGCAAGGGUCUAUCGAAGGGCUUGACGGACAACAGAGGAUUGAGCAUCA: 0.599 ratio
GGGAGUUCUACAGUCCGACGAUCGAGUCGAGCAAACUUGAAACAAUUCGUUUUACAAAAACCUCAGUGUUUUUACUUGCCGCGAUAGCAUUGGGGUUUUAUAGGUUCUGGAAGGAGAACUGACGAUGAUGCUGCCGCUGCUGCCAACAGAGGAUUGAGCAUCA: 0.456 ratio
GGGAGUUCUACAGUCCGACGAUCGAUCAUGAACCACCAUCAGAAAUGAAGAUGAGAUUACCCAGACGAGCCAAAACAGCUGCGCUACAGAAAAGUAAACUUAACCUUGCAGAGUUCCUUAAAUGAAGAUCUAAGUUAGGAAGCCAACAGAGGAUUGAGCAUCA: 0.383 ratio
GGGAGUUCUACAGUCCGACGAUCACAGUUAUAUUGUUGAGGUUUGUAUUUAUAUAUUCUUGUAGUGUCUGCUUGCCUGUGACUUCUGGUAAAAUAAGACUAGCCUUUGAAAAUAUUUUAGCAUGGUAUUUAACAUUUUCUAAACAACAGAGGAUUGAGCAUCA: 14.8 ratio

Block 2
Target: Sal-like protein 4, full length isoform B (SALL4, Homo sapiens, UniProt Q9UJQ4-2, residues 1-616)
Method: universal PBM
Molecule type: double-stranded DNA, one strand shown
Medium: in vitro
Concentration: not given
Setting: 8-mer, flanks averaged, mean of replicates
Direction: higher = stronger binding
Quantity: E-score
Target sequence (chain): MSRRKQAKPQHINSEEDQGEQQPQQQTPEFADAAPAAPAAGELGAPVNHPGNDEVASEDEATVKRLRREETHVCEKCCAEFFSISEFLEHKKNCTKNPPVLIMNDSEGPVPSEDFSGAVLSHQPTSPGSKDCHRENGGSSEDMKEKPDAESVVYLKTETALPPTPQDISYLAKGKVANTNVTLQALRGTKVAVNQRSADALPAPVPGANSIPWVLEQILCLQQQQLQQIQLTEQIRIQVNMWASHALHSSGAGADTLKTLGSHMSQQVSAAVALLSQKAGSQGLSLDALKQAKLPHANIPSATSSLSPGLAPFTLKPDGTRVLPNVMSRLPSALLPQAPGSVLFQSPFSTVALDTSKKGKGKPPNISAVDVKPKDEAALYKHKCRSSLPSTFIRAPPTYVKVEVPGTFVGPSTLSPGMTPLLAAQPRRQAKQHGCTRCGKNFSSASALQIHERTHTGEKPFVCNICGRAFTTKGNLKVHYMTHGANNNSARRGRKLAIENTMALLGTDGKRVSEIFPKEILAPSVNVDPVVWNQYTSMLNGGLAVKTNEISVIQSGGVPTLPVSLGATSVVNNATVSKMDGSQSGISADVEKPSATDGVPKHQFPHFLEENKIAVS
ATGTAGAA: 0.165
CACTGTTC: 0.00957
CAATTATG: 0.371
GATCCGGA: -0.0968
AAAACGAC: 0.00476
GTAGGTCA: -0.0754
AAGCGTAG: -0.0887
ATCTGCTG: 0.0424
ACCTCTCT: -0.0899
GCAAACAA: 0.109
AGGAGTTG: 0.00223
TATCTCCA: 0.0994
AGGTAGAC: -0.13
CTGGCCAC: -0.229
CACTAAGA: -0.0341
CGACAGAA: -0.033
ATTAAGTG: 0.231
AGAGATTA: 0.102
CCCTAGAG: -0.251
GTTACGGA: -0.161
CAGCATCC: -0.214
TTAATTAA: 0.386
TCCCGCCA: -0.174
CGCAATAA: 0.186

Block 3
Target: Centromere-binding protein 1, full length, N-terminal tag (CBF1, Saccharomyces cerevisiae, UniProt P17106, residues 1-351)
Sequence of UniProt P17106 (whole entry, looked up): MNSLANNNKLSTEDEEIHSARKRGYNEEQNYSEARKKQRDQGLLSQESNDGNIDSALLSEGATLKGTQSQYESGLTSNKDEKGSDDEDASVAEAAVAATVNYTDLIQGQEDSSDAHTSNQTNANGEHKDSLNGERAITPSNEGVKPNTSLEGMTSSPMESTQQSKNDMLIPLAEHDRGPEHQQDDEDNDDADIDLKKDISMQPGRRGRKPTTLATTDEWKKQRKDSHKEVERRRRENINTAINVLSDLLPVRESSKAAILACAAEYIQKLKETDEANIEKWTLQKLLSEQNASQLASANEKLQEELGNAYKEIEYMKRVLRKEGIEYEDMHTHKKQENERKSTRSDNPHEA
Method: protein-binding microarray
Molecule type: double-stranded DNA, one strand shown
Medium: in vitro
Concentration: 0.8 µM
Setting: whole 60-bp probe, no competitor
Direction: higher = stronger binding
Quantity: fluorescence intensity
GAATGAATAATCGGTCACCTCGTGTGTCGTGATTAGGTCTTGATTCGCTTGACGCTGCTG: 708 a.u.
GAATCTTCCGTTAGCAGCATGATCTTGTGTAGATAGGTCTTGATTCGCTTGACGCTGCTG: 557 a.u.
CTATGATTGAGACGTGTTGTGTTTAAACTATCCTTCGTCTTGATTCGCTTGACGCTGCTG: 507 a.u.
GAAAGTCCATATTTCCACGTTCTCCTCTTCCTATAGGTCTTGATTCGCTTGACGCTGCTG: 525 a.u.
TGTACGAAGCTATTGCACGTACCTATAGTAGTTAGGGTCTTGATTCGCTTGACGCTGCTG: 518 a.u.
CTATATCTCAAATTTCACCTGTTTCTCATTTTTTTCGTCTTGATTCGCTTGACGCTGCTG: 523 a.u.
CTATTTCGTCTTTTTCATCTGATGACATTCTAGTTCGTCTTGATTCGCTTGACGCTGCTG: 583 a.u.
CTAATTGCATTTCGTTACATGATCAAACAATTCTTCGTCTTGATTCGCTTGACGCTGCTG: 588 a.u.
GAACTTCCCCTAGGTCACAACTTTTTTTCCCTCTAGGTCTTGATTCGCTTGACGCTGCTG: 592 a.u.
GAAGCATGCAATCGTGGTCAGAATTCTAACTTTTAGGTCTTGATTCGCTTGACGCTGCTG: 502 a.u.
GAAAACGTTCAAGGCAACGTGTATGTTTGTTATTAGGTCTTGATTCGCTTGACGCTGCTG: 575 a.u.
CTAAAGTGTGTGAATTTCGTGATAAAATTATTGTTCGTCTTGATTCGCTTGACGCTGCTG: 561 a.u.
GAATCTTTAAGCGCTCTCGTGAGAGAATATCACTAGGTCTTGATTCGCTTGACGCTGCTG: 706 a.u.
GAATTATTCACTGCAAACATGTGAAAAATTCCATAGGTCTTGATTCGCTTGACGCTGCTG: 632 a.u.
CTAACTGAGACAGACTTCGTCACCGTGGAAGTATTCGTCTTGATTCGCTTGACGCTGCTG: 502 a.u.
CTATATATACATATTCACATGTTTCTCATTTTTTTCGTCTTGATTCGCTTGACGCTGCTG: 660 a.u.
GAAGAGTAAACAATCCTGATGCTGCAAATGCGTTAGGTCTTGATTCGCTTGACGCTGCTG: 535 a.u.
CTAAAAAGACTAAGGCGGGTGAGGGGAATTGAATTCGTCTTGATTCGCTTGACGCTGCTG: 473 a.u.
TGTACGAAGCTATTGTACGTGTGTATAGTAGTTAGGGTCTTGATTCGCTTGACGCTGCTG: 531 a.u.
CTAGCTGTAGCTATCGTCGTGATCGCTTTTACTTTCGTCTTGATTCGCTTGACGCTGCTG: 848 a.u.
GAATGATAATGTGAACACGTCATCATAGACGGTTAGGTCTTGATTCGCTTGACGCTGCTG: 569 a.u.
GAAAAATGATGTACGCACGTGGGCGAAAGTTCATAGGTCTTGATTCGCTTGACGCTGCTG: 3460 a.u.
GAATAGTTTCTTTCGCATGTGGTCGCTGTATGATAGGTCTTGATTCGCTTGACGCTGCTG: 702 a.u.
CTAAAAAACCAAACTCACGCAACTAATTATTCCTTCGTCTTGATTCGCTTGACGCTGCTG: 513 a.u.
CTAAGTTAATTTTGTCACCTTAGACTACCAATTTTCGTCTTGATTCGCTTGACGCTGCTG: 514 a.u.

Block 4
Target: Histone acetyltransferase KAT6A, both winged helices, GST fusion (KAT6A, Homo sapiens, UniProt Q92794, residues 1-181)
Method: protein binding microarray
Molecule type: double-stranded DNA, one strand shown
Medium: in vitro
Concentration: not given
Setting: 8-mer, flanks averaged, mean of 2 arrays, mostly near background
Baseline: not given
Direction: higher = stronger binding
Quantity: E-score
Target sequence (chain): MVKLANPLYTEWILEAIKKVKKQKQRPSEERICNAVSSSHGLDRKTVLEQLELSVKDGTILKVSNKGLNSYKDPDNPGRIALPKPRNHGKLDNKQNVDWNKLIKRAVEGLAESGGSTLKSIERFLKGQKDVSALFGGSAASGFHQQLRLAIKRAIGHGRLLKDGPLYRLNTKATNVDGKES
CATTACCG: 0.155
ACGAGCCC: -0.148
GGCCGACC: 0.182
AAGCTGTC: -0.081
GGCGTTTA: 0.101
ACTTGTAT: -0.092
GTAGAGGA: -0.165
AGACCAAG: -0.00576
ATACACGC: 0.196
GCTCAATA: -0.0479
GATCACCC: -0.138
ACCGCAAC: 0.0827
CTTAAGTC: -0.17
AATCCTGT: -0.0992
ACACTGAT: -0.133
CCTTGGCC: -0.227
ACCAACGA: -0.152
GTTTACGA: -0.184
AAGACAAG: -0.0966
CCGTCAGA: 0.149
AGGGACGA: 0.0299
GCCCTACC: -0.025
ACTAGGTC: 0.0408
CGGCCTTC: 0.255
CAAGAGAC: -0.0731

Excerpt of the above (block 2):
ACCTCTCT: -0.0899
GCAAACAA: 0.109
AGGAGTTG: 0.00223
TATCTCCA: 0.0994
AGGTAGAC: -0.13
CTGGCCAC: -0.229
CACTAAGA: -0.0341
CGACAGAA: -0.033
